Measurements of several laboratories.
Parts stem from different laboratories: compare values within a part only. Positions count from the first letter of the parent shown.

Study 1
Target: Prothrombin, mature alpha-thrombin (F2, Homo sapiens, UniProt P00734)
Technique: aptamer microarray, sandwich
Form: DNA with 2'F-ANA
Matrix: in vitro
Tested at: 200 nM
Notes: whole 15-mer aptamer, many near background
With: Cy3 exosite-II aptamer, 400 nM
Direction: higher = stronger binding
Oligonucleotide: GGTTGGTGTGGTTGG
Modification | mean fluorescence intensity
2'F-ANA at 1 4 5 6 9 10 12 15 | 47.2 a.u.
2'F-ANA at 2 6 7 9 11 | 300 a.u.
2'F-ANA at 7 8 9 12 13 | 747 a.u.
2'F-ANA at 1 3 7 11 12 13 14 15 | 226 a.u.
2'F-ANA at 1 2 5 6 7 8 9 10 11 14 | 44.9 a.u.
2'F-ANA at 4 5 6 7 8 12 13 | 107 a.u.
2'F-ANA at 2 3 4 6 7 8 12 13 14 15 | 360 a.u.
2'F-ANA at 1 6 13 | 128 a.u.
2'F-ANA at 1 5 10 11 12 15 | 49.7 a.u.
2'F-ANA at 3 4 6 8 14 | 318 a.u.
2'F-ANA at 1 4 6 10 11 13 14 | 45.4 a.u.
2'F-ANA at 1 2 4 7 8 10 12 13 14 | 46.4 a.u.
2'F-ANA at 1 3 6 7 8 9 10 11 13 14 | 75.9 a.u.
2'F-ANA at 1 3 4 5 6 9 10 12 15 | 53.4 a.u.
2'F-ANA at 3 4 5 9 10 11 14 | 53.3 a.u.
2'F-ANA at 1 2 4 5 7 9 10 11 14 15 | 50.7 a.u.
2'F-ANA at 1 3 4 7 9 12 13 15 | 284 a.u.
2'F-ANA at 1 4 5 6 7 12 14 15 | 49.1 a.u.
2'F-ANA at 2 3 4 5 7 8 11 13 14 | 64.7 a.u.
2'F-ANA at 2 3 4 5 6 7 11 13 | 62.1 a.u.
2'F-ANA at 1 3 5 8 9 11 12 13 15 | 80.6 a.u.
2'F-ANA at 2 3 4 8 12 14 | 414 a.u.
2'F-ANA at 1 2 3 4 5 11 13 15 | 52.4 a.u.
2'F-ANA at 1 2 3 4 5 7 9 10 11 12 15 | 50 a.u.
2'F-ANA at 9 11 13 15 | 385 a.u.

Study 2
Target: Interferon regulatory factor 5, full length, phosphomimetic (IRF5, Homo sapiens, UniProt Q13568-2, residues 1-514, S451D/S453D/S456D/S462D)
Technique: protein-binding microarray
Form: double-stranded DNA, one strand shown
Matrix: in vitro
Tested at: 940 nM top
Notes: 60-bp whole probe
With: salmon DNA 0.4 mg/ml
Relative to: random background probes
Direction: higher = stronger binding
All sequences stand within: GCCTAGCAC … GTCTTGATTCGCTTGACGCTGCTG
Oligonucleotide | fitted relative affinity [z-score]
CTAGATATCAGTTTCGATTAGTGCTAG | 8.38
AGTCTCTGCAGGGAGAGAGCGTGCTAG | 0.969
TCAAATATATATATTGTACTGTGCTAG | 0.0541
CAGCCGCACAGCATGAGTTCGTGCTAG | -0.517
CACGATTTCAGACTGGAGACGTGCTAG | -0.228
ACTGCTCTGTTGCCTGGTCCTGTGCTA | 0.42
TCAACTTTCTACTTCTCACTGTGCTAG | 2.19
GACGAACTGCTACTGCTGACGTGCTAG | -0.65
TTAGGTTTCCTTTTCCTGTAGTGCTAG | 2.29
GACCGTCTCGGTCTCGGGACGTGCTAG | 3.52
GACGGTATCGGGACTGGTGACGTGCTA | 2.94
TTATGTCTCGGTCTCGGTTAGTGCTAG | 5.76
GACGGATTGCTTCTCCTGACGTGCTAG | -0.164
TGTCTTCCCCTCTCTTTCCAAGTGCTA | 1.69
TCACCTTTACATTCCCCACTGTGCTAG | 1.66
TGAGGTTTCGACACTGGGTTAGTGCTA | 5.52

Study 3
Target: Phosphate system positive regulatory protein PHO4, full length, GST-tagged (PHO4, Saccharomyces cerevisiae, UniProt P07270, residues 1-312)
Technique: competition protein-binding microarray
Form: double-stranded DNA, one strand shown
Matrix: in vitro
Tested at: 2 µM
Notes: whole 60-bp probe, lowest competitor level
With: Cbf1 competitor, 0.05 µM
Direction: higher = stronger binding
All sequences stand within: … GTCTTGATTCGCTTGACGCTGCTG
Residues (chain): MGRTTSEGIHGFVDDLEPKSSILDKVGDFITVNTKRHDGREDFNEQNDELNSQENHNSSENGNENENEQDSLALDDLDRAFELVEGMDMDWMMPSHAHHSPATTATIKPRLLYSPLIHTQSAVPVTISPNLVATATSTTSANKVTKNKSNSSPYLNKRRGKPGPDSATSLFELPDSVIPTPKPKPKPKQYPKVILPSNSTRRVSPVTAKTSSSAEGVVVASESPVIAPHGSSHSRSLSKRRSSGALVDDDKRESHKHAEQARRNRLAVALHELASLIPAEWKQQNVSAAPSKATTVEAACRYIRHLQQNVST
Oligonucleotide | fluorescence intensity [a.u.]
TGGCGCTGGGGTCCTCACGGGCGCTTTGTTCAAGTC | 4480
AAAGCGGTAATTTGAAGTGTGGGTGCAGATATCTAT | 5320
TTGGTACTGGTATTGCACGTGGAAGTGGCGGAGCAG | 17900
CCGGGGGCATATTGACGCGTGGAAGAATAGAAGTCC | 9350
GCGTTATGAGCTACCCTCGTGGCCGGAAAGATGGCG | 12500
TAAGTTTTTGGCCTGTGCGTGTTGATAAGGGAAAGA | 7860
CTTCTGTAAATTTGTCACTATACTTGACGCGCCCCG | 3270
AATTGGGTATTTTACCTCGTGATGGCCTCACAAAAG | 9230
CTTTCCCGATCTTGTTCGGTGGGTGTAGCACATTTG | 3970
CTAACGAAGGTTTGGTTCGTGGGTGACAAGCCAAGT | 6470
TAATTTGCTGTCCATCACGTGATGGATAATTTTTTT | 15100
AAAGAACCGTTTTAGCACGTGTTGATTGTCCATTTA | 19300
AAATTACTAAGTTGGACCGTGGGTGACGCCGTATGA | 8200
CGGGGTTAAGTTTGCAACGTGGGTGGCTTGCAGCAG | 13100
TTTGGCCTCAAATGACACATGCAATCTCGAACAGTT | 7740
CCGCTATATACTTTTCACGTGGGACCTGCAAAATAA | 16700
ATTTTTCAATATTTTCACATGTGTGTCAATTTCTGC | 8670

Study 4
Target: RNA binding protein fox-1 homolog 2, RRM domain, GST-SBP tag (RBFOX2, Homo sapiens, UniProt O43251-10, residues 100-194)
Technique: RNA Bind-n-Seq
Form: RNA
Matrix: in vitro
Tested at: 365 nM
Notes: natural RNA segment, single round, ends assumed
Relative to: no-protein control
Direction: higher = stronger binding
All sequences stand within: GGGAGUUCUACAGUCCGACGAUC … UGGAAUUCUCGGGUGCCAA
Residues (chain): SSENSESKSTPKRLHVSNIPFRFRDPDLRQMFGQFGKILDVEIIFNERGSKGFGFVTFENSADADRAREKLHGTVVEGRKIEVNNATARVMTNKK
Oligonucleotide | RBNS enrichment (R)
CAUCCGAUUAGCCCAACUCUGUCUCCCAGGCCCCCUGCUGGGAAACCCAUACCCAGCAUCCCUCCCCUGCCCUGGCCCUCGGCUGUGUAUUUAUAGAUGGAAAUAUACUU | 0.626
UAGUGUCAUUCCUGGAAUUAACUUAUCAUGCAUUUGCUUAGUUAAAGUCAAAAUUUAAUAUUGGUUCUUUAACUGAAAUAUUUAAUUGAGCACUUACAUCUCUAUUGCUU | 0.401
AAAUAGAAACUAAUAAUAGCUCUAUUUCUCUGCCAAUAUAAAAUCUACCUUUCAUAUAAUGCUACAUUGAAGGCACAGAAUUUGCUACCAUCUCUCUCUCCCCCUACCUA | 0.975
GUUUCCUCACGCUGGUUUCUCUGGUUUGGGGCUCCACGGCCAAGUCCUUGUUGGCUGAGGGCAGGACCUUGUAACCCUCUUCCAUGCACAACUUGCACACCCCCUGUUCC | 1.32
AAGGGAAGGGUAGCCAGGGAGGGAGUCCAGCCCAGCUGCCUGCAGGAAGAUCUGGCUCAGUCUACUAUGGGCAGGGCCCCCCACCAAGCUGAGCCGAAUGGAGACAGCUG | 0.349
GGGAAGCUUUUCCUCUCUCUAAUUAGCUUUCCCAGUAUACUUCUUAGAAAGUCCAAGUGUUCAGGACUUUUAUACCUGUUAUACUUUGGCUUGGUUUCCAUGAUUCUUAC | 0.354
GGAAUUUGUUGUCUGCUUCUAAGCUAGAGUGGUUGUAAAGGUUCUGCUCUGCCAGUGUUCAGUAUCAGUGGCUGAAUUAUGGAUAAGAACUGUAGAGAAUCUUCUGUUUA | 0.611
UUACUAAUUUGAUGUAUGGUUUCACAGUCUAGCAUACUGUCCUUUGACAUCUGCCUUUAAGACUUGGCUGAGUGUCUCAUUAGUUUAUCAUCACAGAUACGCAGUGUUAU | 0.459
UGGAUAUGCCUAUGUCACACUGUCACUCAGUGUGUGGAACUUUCUCUUUAAAGGUGUAACAUCUUAAAUUUGGUGAUGAAUAGUGACAACCAAAAGACUAGAUUGUGCCU | 0.344
CUCCUGUGCCCAUUUUAUAAUACCUCGCCAAGCUUGGGUCUUUAGAUGAGCAAGAUUAUGGUUAGUGGGGGCUCUGUGGAGCAUGCACGUAGUGCCCUUCCUUCAUCAGG | 7.74
GCGUUAAACGGAGGUGGCAGAAAUUUGUCAAGAAGGCCUUAUCCAUUUCGAUUGUGUGACAGAUUGAAAUUUAUUGUUUACAUUGGGGAAUGUAUCUCAAAUUUUUAAAU | 0.63
GCGUGUCCCAGCCCAUGCCCCUCUGUCUUCGUGGAGAGUGUUGUGUUGAGCCCAUUCAGUAGCCGAGUCUUGUCACUCUGUGCCAGCCUCAGUCCUGUGUCCCUUUUUCU | 0.227

Study 5
Target: CCNA1, cyclin fold, Cln2 fusion (human)
Technique: yeast growth competition, sequencing
Matrix: yeast
Notes: weak parent motif
Relative to: not given
Direction: higher = stronger binding
Starting sequence: REPIN1 docking peptide (human); QSFRGWVALVLHL; partner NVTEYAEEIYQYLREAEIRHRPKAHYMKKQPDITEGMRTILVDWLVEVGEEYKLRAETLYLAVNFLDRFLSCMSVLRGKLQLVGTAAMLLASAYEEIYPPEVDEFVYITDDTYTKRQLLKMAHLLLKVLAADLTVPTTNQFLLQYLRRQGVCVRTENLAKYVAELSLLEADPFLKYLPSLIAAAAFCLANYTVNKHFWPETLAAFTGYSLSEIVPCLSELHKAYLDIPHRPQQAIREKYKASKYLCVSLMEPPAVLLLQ
Change | normalised enrichment score
QSFRGWAALVLHL [V7A] | 0.388
QSFRGWVALVLAL [H12A] | 0.0486
QSFRAWVALVLHL [G5A] | -0.0729
QSFRGAVALVLHL [W6A] | -0.62
QSARGWVALVLHL [F3A] | 0.454
QSFRGWVAAVLHL [L9A] | -0.868

For quick reference, copied from above (study 3):
Oligonucleotide | fluorescence intensity [a.u.]
AAATTACTAAGTTGGACCGTGGGTGACGCCGTATGA | 8200
CGGGGTTAAGTTTGCAACGTGGGTGGCTTGCAGCAG | 13100
TTTGGCCTCAAATGACACATGCAATCTCGAACAGTT | 7740
CCGCTATATACTTTTCACGTGGGACCTGCAAAATAA | 16700
ATTTTTCAATATTTTCACATGTGTGTCAATTTCTGC | 8670
